Published values pooled from the literature.
A part holds a random share of what one study measured. Changes are numbered by the printed parent chain.
Sequence of UniProt O00506 (whole entry, looked up): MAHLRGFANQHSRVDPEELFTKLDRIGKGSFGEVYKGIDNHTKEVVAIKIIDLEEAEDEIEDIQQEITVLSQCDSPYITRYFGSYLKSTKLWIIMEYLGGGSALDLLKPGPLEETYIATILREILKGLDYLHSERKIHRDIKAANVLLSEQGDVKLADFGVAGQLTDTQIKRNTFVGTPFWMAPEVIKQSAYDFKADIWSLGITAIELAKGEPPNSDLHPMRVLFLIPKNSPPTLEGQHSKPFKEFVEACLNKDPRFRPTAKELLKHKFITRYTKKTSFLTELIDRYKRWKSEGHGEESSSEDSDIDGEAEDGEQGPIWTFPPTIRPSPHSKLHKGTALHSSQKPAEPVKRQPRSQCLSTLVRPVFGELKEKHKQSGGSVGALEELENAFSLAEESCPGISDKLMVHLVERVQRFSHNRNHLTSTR

Series 1
Target: OGT, full length, His-tagged (human)
Method: phage display, sequencing
Medium: in vitro
Concentration: 1 µg OGT
Notes: single substitutions, 15-mer displayed peptide, unchanged parent 6.14
Baseline: input library
Direction: higher = stronger binding
Starting sequence: peptide; VAYPNSYMPKYQIST; partner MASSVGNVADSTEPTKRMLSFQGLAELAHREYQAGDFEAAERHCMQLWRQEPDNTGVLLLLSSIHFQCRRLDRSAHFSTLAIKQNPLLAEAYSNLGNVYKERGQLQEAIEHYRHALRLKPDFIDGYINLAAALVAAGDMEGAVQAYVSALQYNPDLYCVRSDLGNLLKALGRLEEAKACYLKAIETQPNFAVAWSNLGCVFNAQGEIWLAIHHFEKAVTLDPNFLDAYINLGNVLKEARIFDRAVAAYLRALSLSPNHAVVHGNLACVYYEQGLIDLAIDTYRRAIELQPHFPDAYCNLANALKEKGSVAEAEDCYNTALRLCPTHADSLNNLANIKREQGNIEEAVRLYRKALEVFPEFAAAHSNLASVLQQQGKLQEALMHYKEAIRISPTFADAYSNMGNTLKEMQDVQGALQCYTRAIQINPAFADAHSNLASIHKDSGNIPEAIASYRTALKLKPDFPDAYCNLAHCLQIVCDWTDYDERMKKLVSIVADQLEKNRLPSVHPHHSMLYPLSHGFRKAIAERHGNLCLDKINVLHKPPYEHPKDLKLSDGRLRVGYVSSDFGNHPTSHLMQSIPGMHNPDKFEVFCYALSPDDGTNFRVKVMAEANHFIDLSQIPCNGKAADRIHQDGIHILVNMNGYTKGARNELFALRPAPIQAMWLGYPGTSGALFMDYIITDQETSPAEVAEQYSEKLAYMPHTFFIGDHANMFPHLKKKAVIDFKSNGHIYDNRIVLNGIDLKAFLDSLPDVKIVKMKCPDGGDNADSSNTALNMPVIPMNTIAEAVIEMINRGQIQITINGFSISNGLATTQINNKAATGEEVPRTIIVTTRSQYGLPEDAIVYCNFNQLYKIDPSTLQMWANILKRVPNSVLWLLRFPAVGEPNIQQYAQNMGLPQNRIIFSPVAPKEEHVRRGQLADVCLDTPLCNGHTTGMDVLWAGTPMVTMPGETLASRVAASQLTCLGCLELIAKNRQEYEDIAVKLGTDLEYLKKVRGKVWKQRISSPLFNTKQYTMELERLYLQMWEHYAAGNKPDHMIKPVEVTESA
Change | fold enrichment [fold]
K10F | 5.28
T15I | 19.4
P4R | 15.5
A2R | 2.6
A2H | 10.5
S6Q | 10.3
Y11P | 0.0143
S14E | 8.43

Series 2
Target: Hepatocyte nuclear factor 3-beta, forkhead domain (FOXA2, Homo sapiens, UniProt Q9Y261, residues 142-269)
Method: protein-binding microarray
Form: double-stranded DNA, one strand shown
Medium: in vitro
Concentration: not given
Notes: k-mer, scored over probes, only values ≥0.25
Direction: higher = stronger binding
Construct (chain): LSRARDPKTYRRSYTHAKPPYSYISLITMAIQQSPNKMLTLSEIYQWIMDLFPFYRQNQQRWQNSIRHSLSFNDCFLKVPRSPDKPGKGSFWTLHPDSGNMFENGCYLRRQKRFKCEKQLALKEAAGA
Oligonucleotide | E-score
TAGATCAA | 0.26
ATATAACA | 0.406
ACAACCAG | 0.264
TAACTATA | 0.357
TAAATACA | 0.371
AGTGTGTG | 0.256
CATTAAAC | 0.276
TGTAAGAA | 0.256

Series 3
Target: CREM, bZIP domain (human)
Method: DHFR protein complementation
Medium: yeast
Notes: single substitutions, most at no-binding floor
Baseline: wild-type JUN-FOS pair
Direction: higher = stronger binding
Starting sequence: JUN, bZIP domain (human); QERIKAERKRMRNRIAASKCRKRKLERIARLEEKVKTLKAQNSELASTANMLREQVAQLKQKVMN; partner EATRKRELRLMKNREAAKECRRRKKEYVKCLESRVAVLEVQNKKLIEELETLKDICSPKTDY
Change | binding fitness [natural log]
Q41I | -1.4
N42A | -1.44
T48Q | -1.28
M51P | -1.56
A49P | -1.56
S47I | -1.41
E32T | -1.48
L45Y | -1.26

Mixed results
SMILES | target | read-out | mode | concentration | baseline | measurement | result
N#CC(C#N)=C(N)/C(C#N)=C/c1ccc(O)cc1 | Serine/threonine-protein kinase 25 (STK25, Homo sapiens, UniProt O00506) | enzyme activity | inhibitor | 0.5 µM | control | remaining activity | 90.4%

For quick reference, copied from above (series 1):
Change | fold enrichment [fold]
S14E | 8.43
P4R | 15.5
